{"data": "Results from different studies", "FFAR4": "Free fatty acid receptor 4 (FFAR4, Homo sapiens, UniProt Q5NUL3)", "note": "Values joined by “and” are separate records of one study, mostly repeats; a detail may differ. Numbers after ± are the reported error.", "chain of UniProt Q5NUL3 (whole entry, looked up)": "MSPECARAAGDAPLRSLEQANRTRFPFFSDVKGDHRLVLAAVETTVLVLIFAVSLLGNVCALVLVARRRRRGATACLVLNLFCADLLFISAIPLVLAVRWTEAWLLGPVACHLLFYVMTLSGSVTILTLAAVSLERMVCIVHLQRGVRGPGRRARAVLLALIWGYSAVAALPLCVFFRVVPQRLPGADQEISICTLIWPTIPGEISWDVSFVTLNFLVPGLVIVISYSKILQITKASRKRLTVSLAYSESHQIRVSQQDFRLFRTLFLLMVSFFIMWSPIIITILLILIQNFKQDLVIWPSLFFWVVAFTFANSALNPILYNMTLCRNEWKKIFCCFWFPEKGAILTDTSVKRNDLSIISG", "chain of UniProt P47901 (whole entry, looked up)": "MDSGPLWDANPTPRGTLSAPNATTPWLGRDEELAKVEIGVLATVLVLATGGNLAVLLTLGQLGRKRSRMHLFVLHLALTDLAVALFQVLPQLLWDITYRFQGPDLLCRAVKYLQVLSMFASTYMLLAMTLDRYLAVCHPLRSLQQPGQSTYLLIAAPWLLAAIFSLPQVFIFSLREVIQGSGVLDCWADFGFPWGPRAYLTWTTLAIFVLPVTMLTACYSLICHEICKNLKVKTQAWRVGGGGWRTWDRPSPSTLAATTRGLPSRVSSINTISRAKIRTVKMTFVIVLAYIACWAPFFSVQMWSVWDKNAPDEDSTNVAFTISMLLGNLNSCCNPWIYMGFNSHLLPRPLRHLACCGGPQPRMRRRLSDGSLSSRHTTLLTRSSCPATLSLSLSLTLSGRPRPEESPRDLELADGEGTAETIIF", "chain of UniProt Q14123 (whole entry, looked up)": "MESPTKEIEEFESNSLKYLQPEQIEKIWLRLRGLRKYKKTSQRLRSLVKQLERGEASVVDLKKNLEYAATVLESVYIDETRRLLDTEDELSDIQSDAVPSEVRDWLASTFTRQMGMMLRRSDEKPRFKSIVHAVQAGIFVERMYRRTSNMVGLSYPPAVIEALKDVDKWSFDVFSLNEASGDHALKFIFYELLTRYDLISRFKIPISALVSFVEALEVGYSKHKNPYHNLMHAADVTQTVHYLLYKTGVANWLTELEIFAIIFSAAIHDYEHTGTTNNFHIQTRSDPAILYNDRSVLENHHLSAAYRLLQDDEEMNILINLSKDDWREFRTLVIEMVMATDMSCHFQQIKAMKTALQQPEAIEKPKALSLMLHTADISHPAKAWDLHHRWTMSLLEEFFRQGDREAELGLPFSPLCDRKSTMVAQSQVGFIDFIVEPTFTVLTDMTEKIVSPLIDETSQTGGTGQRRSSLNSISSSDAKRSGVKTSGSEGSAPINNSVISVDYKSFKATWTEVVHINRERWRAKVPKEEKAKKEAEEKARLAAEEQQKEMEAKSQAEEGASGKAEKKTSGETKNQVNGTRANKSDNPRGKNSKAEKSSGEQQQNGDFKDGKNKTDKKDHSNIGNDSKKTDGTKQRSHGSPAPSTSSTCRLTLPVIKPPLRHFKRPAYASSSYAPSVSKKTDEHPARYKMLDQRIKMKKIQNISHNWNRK", "chain of UniProt Q7Z2W7 (whole entry, looked up)": "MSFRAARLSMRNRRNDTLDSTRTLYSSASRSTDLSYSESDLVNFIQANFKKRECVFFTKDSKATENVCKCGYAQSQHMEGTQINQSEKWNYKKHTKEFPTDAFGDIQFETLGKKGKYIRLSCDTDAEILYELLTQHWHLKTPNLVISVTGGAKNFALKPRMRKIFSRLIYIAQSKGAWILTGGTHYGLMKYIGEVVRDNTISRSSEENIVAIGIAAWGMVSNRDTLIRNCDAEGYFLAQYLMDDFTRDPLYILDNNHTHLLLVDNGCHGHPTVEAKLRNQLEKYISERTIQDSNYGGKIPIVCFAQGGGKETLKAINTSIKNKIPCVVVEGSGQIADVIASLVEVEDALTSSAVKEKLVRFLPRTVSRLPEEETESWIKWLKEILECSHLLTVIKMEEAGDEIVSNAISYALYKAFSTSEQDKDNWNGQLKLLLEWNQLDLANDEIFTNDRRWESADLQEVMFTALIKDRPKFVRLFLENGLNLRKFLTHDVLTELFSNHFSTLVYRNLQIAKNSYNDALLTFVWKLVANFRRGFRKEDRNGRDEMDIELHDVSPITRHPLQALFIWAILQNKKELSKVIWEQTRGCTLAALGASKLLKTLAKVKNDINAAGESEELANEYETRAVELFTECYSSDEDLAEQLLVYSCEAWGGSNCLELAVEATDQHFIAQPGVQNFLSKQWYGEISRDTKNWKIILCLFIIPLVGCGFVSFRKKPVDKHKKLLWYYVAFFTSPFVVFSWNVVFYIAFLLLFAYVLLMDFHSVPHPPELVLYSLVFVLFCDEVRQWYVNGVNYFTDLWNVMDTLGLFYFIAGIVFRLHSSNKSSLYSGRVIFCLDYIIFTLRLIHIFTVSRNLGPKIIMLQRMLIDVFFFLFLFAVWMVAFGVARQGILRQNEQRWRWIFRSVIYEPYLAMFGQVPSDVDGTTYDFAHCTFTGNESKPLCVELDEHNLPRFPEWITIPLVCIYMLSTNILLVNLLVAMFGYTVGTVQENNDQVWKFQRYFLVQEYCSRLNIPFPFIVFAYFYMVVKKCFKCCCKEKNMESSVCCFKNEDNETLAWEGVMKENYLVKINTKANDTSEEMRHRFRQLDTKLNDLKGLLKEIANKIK", "chain of UniProt Q12791 (whole entry, looked up)": "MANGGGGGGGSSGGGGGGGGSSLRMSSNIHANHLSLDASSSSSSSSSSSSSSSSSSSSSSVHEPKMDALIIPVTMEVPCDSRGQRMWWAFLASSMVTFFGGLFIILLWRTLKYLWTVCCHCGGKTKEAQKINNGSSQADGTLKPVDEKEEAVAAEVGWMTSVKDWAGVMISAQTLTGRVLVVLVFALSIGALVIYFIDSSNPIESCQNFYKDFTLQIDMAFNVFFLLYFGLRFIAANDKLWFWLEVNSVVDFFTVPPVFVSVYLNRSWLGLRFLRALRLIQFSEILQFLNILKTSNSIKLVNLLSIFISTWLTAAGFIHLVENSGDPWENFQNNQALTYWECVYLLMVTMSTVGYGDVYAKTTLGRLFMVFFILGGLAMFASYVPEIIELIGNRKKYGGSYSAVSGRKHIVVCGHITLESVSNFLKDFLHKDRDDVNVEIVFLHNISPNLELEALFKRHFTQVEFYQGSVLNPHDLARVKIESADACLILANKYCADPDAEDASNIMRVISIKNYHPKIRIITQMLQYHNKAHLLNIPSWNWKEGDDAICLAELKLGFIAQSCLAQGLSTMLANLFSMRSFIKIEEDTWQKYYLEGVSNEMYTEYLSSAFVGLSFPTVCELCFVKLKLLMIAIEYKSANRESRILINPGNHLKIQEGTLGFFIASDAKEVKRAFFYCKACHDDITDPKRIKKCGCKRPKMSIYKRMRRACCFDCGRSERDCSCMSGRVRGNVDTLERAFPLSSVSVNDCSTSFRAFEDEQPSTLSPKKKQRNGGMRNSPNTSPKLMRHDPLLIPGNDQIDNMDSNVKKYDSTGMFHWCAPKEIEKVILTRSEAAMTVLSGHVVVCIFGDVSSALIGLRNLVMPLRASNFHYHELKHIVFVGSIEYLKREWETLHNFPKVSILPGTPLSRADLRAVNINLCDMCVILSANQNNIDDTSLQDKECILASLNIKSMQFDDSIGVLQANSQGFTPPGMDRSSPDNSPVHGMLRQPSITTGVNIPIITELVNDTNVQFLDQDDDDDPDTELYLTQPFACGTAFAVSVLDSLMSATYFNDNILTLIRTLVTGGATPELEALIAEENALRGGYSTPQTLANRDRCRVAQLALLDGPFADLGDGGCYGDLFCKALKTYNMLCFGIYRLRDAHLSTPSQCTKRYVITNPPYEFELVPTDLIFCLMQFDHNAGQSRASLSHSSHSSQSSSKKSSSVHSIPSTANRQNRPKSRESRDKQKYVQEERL", "chain of UniProt Q9UHD2 (whole entry, looked up)": "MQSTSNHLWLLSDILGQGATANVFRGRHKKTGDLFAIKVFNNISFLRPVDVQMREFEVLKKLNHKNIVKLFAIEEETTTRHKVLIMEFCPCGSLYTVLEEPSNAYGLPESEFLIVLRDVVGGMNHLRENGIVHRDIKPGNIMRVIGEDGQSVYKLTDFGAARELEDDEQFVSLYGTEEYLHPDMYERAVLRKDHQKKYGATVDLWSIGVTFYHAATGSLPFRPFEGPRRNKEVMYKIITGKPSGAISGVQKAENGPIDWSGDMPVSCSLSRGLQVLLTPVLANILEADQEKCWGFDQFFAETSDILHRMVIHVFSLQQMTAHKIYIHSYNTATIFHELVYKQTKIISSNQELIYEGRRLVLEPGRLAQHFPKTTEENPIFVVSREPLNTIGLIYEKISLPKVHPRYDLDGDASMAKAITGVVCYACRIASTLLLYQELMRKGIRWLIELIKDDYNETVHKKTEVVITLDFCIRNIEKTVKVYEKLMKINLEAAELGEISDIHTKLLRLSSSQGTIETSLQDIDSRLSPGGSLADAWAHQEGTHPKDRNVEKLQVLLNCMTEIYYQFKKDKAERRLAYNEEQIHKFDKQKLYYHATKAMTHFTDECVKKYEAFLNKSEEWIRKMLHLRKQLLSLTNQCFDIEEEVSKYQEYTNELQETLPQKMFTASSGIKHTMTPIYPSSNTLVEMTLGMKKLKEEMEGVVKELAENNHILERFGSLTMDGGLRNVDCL", "chain of UniProt P48549 (whole entry, looked up)": "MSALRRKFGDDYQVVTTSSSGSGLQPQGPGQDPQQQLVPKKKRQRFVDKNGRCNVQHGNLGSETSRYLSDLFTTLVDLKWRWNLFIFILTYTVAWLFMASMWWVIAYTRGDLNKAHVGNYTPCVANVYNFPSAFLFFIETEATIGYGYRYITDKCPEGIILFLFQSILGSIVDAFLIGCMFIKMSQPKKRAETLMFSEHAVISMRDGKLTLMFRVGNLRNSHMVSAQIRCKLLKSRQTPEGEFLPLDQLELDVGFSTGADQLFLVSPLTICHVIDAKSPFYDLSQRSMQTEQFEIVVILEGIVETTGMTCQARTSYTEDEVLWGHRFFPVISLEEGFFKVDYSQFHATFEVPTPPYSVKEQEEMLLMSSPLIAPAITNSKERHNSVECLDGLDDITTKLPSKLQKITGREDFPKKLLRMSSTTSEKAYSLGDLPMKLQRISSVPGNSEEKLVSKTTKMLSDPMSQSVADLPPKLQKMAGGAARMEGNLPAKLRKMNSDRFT"}
{"SMILES": "O=c1cc(NCCc2ccccc2)[nH]c(=O)[nH]1", "target or system": "FFAR4", "test": "antagonist, β-arrestin recruitment", "system": "CHO cells", "conditions": "10 µM", "measurement": "inhibition", "result": "21 ± 9%"}
{"SMILES": "O=C1NC(=O)C(c2c[nH]c3ccccc23)=C1c1c[nH]c2ccccc12", "target or system": "Transient receptor potential cation channel subfamily M member 8 (TRPM8, Homo sapiens, UniProt Q7Z2W7)", "test": "antagonist", "system": "HEK293", "conditions": "5 µM", "how to read": "relative to: control", "measurement": "remaining activity", "result": "89 ± 6.05%"}
{"SMILES": "O=C(COc1ccc(C(F)(F)F)cc1C(F)(F)F)Nc1cc(C2CC2)nn1C1CCOCC1", "target or system": "Kir3.1/Kir3.2 (Homo sapiens, UniProt P48051+P48549)", "test": "thallium flux, activator", "system": "HEK293", "how to read": "relative to: standard compound", "measurement": "Emax", "result": "79%"}
{"SMILES": "CC(C)(C)CNc1cc(=O)[nH]c(=O)[nH]1", "target or system": "FFAR4", "test": "agonist, β-arrestin recruitment", "system": "CHO cells", "conditions": "10 µM", "measurement": "activation", "result": "1%"}
{"SMILES": "CC1=C(/C=C/C(C)=C/C=C/C(C)=C/C=O)C(C)(C)CCC1", "target or system": "Rhodopsin (RHO, Bos taurus, UniProt P02699, I189P)", "test": "retinal release, Trp FRET", "system": "lipid bicelles", "conditions": "28 °C, I189P mutant", "how to read": "relative to: wild-type rhodopsin", "measurement": "relative koff", "result": "12.9 ± 4.2"}
{"SMILES": "O=c1cc(NCCc2c[nH]c3ccccc23)[nH]c(=O)[nH]1", "target or system": "FFAR4", "test": "antagonist, β-arrestin recruitment", "system": "CHO cells", "conditions": "10 µM", "measurement": "inhibition", "result": "14 ± 6%"}
{"SMILES": "CN(C)C(=O)C(CCN1CCC(O)(c2ccc(Cl)cc2)CC1)(c1ccccc1)c1ccccc1", "target or system": "Calcium-activated potassium channel subunit alpha-1, with LRRC26 γ1 subunit (KCNMA1, Homo sapiens, UniProt Q12791)", "test": "BK current, inhibitor, inside-out patch clamp", "system": "excised membrane patch", "conditions": "0.1 µM, γ1 subunit coexpressed, together with: nominally 0 Ca2+ cytosolic", "how to read": "relative to: without loperamide", "measurement": "normalized Gmax", "result": 0.899}
{"SMILES": "CCOc1ccc(-c2nc(CNCCc3ccc(F)cc3)cs2)cc1", "target or system": "Glideosome-associated protein 50 (GAP50, Plasmodium falciparum, UniProt Q8I2X3)", "test": "binding, surface plasmon resonance", "conditions": "1:1 binding model", "measurement": "koff", "result": "0.28 s⁻¹"}
{"SMILES": "CC[C@@H]1[C@H](F)C(=O)N[C@@H]1COc1nccc2cc(C(N)=O)c(OC)cc12", "target or system": "Serine/threonine-protein kinase TBK1 (TBK1, Homo sapiens, UniProt Q9UHD2)", "test": "ATP-site probe binding, ActivX profiling", "system": "THP-1 cell lysate", "conditions": "0.2 mM, Lys1 site", "measurement": "inhibition", "result": "-31.6%"}
{"SMILES": "Cn1cc(-c2ccc(-c3cncc(Cl)c3N3CCC4(CCNC4=O)CC3)cc2)cn1", "target or system": "COLO 205", "test": "gene expression, microarray, item: LY9 mRNA", "conditions": "concentration not given, 6 h", "how to read": "relative to: untreated cells", "measurement": "log2 fold change", "result": -1.17}
{"SMILES": "C[C@@H](O)[C@@H](CO)NC(=O)[C@@H](CCCNC(=N)N)NC(=O)[C@@H]1CCCN1C(=O)[C@@H]1CSSC[C@H](NC(=O)[C@H](Cc2ccccc2)NC(=O)CN2CCN(CC(=O)O)CCN(CC(=O)O)CCN(CC(=O)O)CC2)C(=O)N[C@@H](Cc2ccc(O)cc2)C(=O)N[C@@H](Cc2ccccc2)C(=O)N[C@@H](CCC(N)=O)C(=O)N[C@@H](CC(N)=O)C(=O)N1 [gallium-68 labelled]", "target or system": "Vasopressin V1b receptor (AVPR1B, Homo sapiens, UniProt P47901)", "test": "receptor binding, radioimmunoassay", "conditions": "concentration not given, together with: vasopressin V1b 15.6 nM", "measurement": "binding", "result": "6.5% and 4% and 4.9%"}
{"SMILES": "CCCCCCCCNc1[nH]c(=O)[nH]c(=O)c1Br", "target or system": "FFAR4", "test": "antagonist, β-arrestin recruitment", "system": "CHO cells", "conditions": "10 µM, together with: 4 µM TUG-891", "measurement": "inhibition", "result": "14 ± 3%"}
{"SMILES": "COc1ccc(/C=C2\\OC(=O)c3c2cc(C)[nH]c3=O)cc1", "target or system": "Dual specificity calcium/calmodulin-dependent 3',5'-cyclic nucleotide phosphodiesterase 1C, isoform PDE1C2 (PDE1C, Homo sapiens, UniProt Q14123)", "test": "enzyme activity, inhibitor", "conditions": "together with: 3H-cGMP substrate", "measurement": "ligand efficiency", "result": 0.31}
{"note": "For quick reference, copied from above:"}
{"SMILES": "Cn1cc(-c2ccc(-c3cncc(Cl)c3N3CCC4(CCNC4=O)CC3)cc2)cn1", "target or system": "COLO 205", "test": "gene expression, microarray, item: LY9 mRNA", "conditions": "concentration not given, 6 h", "how to read": "relative to: untreated cells", "measurement": "log2 fold change", "result": -1.17}
